{"data": "Published values from different studies", "note": "Every numbered part comes from another study and shows a few of its results, in no order. Several values in a cell are separate wells, animals, samples, runs or records.", "chain of UniProt Q15759 (whole entry, looked up)": "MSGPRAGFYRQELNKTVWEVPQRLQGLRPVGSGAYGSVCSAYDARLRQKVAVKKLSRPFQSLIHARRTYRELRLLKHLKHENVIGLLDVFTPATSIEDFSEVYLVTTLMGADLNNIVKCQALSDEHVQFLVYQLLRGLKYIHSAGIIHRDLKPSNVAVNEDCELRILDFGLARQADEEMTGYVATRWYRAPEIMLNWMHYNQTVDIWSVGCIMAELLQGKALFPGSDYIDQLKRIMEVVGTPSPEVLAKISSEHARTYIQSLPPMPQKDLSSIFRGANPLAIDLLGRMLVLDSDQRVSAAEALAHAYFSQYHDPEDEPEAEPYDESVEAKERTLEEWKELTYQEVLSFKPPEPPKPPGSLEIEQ", "chain of UniProt Q16832 (whole entry, looked up)": "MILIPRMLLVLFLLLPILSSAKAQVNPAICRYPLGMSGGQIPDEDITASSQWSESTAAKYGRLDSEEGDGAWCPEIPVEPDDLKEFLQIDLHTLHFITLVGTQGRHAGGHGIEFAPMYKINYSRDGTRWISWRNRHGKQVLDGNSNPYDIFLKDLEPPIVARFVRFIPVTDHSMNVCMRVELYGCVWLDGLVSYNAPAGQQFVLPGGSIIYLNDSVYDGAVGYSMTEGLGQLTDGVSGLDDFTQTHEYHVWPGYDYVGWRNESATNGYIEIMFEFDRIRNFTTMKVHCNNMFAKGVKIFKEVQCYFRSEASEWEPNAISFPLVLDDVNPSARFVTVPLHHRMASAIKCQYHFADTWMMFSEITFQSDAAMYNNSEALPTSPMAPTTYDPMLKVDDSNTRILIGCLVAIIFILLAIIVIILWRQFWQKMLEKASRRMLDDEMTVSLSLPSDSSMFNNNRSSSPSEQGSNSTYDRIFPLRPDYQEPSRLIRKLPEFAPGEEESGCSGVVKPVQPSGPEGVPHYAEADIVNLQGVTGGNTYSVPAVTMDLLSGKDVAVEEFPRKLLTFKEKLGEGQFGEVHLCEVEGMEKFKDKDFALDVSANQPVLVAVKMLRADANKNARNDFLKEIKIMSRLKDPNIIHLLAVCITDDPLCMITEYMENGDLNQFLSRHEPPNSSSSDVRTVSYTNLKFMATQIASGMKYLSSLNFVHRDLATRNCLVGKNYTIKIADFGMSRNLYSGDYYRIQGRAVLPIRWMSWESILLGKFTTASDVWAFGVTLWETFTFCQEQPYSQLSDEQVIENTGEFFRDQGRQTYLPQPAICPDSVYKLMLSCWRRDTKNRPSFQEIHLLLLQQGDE", "chain of UniProt Q8IVW4 (whole entry, looked up)": "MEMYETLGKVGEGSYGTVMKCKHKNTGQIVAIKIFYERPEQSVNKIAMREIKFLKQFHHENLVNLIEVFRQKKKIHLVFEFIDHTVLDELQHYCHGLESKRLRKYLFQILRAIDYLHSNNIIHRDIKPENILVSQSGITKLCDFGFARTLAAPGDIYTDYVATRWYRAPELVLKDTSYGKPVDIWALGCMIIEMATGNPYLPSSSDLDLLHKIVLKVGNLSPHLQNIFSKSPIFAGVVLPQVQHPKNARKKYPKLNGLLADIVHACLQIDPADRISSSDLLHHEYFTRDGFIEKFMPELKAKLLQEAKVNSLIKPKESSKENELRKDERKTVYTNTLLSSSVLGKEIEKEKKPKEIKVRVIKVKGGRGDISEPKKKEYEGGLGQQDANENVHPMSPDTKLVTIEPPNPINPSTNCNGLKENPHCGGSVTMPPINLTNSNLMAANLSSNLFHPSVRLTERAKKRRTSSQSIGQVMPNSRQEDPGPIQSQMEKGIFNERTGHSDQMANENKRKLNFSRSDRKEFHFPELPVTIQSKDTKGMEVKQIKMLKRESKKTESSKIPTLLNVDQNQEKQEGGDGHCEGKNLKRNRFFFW", "chain of UniProt Q13131 (whole entry, looked up)": "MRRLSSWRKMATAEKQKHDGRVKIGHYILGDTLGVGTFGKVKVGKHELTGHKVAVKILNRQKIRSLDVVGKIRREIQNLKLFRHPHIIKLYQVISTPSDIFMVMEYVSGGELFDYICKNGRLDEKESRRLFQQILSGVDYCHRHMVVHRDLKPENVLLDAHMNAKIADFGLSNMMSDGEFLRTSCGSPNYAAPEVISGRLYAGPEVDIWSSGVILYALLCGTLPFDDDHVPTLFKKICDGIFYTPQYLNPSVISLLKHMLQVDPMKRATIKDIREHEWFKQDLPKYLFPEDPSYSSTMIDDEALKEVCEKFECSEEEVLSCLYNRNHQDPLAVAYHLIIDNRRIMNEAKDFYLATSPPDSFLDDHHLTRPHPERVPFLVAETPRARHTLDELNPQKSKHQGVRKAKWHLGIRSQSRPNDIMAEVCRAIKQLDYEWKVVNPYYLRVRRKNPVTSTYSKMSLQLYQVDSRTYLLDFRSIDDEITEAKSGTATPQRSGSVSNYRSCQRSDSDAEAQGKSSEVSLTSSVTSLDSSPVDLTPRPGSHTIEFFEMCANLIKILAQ"}
{"data": "Block 1", "SMILES": "C[C@@H]1[C@H](O)[C@@H](C)/C=C/C=C/C=C/C=C/C=C/C=C/C=C/[C@H](O[C@@H]2O[C@H](C)[C@@H](O)[C@H](N)[C@@H]2O)C[C@@H]2O[C@](O)(C[C@@H](O)C[C@@H](O)[C@H](O)CC[C@@H](O)C[C@@H](O)CC(=O)O[C@H]1C)C[C@H](O)[C@H]2C(=O)O", "cell line": "THP-1"}
{"tested at": "10 µM", "notes": "cytotoxicity", "inhibition": "101%"}
{"effect on": "host cell growth", "tested at": "0.04 µM", "inhibition": "-0.12% and -0.29% and -4.9% and -1.51% and -1.33% and -5.73%"}
{"effect on": "host cell growth", "tested at": "0.1 µM", "inhibition": "-1.7% and -1.33% and 1.16% and -0.55% and 0.28% and -1.73%"}
{"data": "Block 2", "target": "DNA polymerase theta, ATPase domain (POLQ, Homo sapiens, UniProt O75417)", "effect on": "enzyme activity", "mode": "inhibitor", "tested at": "77 µM", "baseline": "untreated", "chain of UniProt O75417 (whole entry, unmodified, looked up)": "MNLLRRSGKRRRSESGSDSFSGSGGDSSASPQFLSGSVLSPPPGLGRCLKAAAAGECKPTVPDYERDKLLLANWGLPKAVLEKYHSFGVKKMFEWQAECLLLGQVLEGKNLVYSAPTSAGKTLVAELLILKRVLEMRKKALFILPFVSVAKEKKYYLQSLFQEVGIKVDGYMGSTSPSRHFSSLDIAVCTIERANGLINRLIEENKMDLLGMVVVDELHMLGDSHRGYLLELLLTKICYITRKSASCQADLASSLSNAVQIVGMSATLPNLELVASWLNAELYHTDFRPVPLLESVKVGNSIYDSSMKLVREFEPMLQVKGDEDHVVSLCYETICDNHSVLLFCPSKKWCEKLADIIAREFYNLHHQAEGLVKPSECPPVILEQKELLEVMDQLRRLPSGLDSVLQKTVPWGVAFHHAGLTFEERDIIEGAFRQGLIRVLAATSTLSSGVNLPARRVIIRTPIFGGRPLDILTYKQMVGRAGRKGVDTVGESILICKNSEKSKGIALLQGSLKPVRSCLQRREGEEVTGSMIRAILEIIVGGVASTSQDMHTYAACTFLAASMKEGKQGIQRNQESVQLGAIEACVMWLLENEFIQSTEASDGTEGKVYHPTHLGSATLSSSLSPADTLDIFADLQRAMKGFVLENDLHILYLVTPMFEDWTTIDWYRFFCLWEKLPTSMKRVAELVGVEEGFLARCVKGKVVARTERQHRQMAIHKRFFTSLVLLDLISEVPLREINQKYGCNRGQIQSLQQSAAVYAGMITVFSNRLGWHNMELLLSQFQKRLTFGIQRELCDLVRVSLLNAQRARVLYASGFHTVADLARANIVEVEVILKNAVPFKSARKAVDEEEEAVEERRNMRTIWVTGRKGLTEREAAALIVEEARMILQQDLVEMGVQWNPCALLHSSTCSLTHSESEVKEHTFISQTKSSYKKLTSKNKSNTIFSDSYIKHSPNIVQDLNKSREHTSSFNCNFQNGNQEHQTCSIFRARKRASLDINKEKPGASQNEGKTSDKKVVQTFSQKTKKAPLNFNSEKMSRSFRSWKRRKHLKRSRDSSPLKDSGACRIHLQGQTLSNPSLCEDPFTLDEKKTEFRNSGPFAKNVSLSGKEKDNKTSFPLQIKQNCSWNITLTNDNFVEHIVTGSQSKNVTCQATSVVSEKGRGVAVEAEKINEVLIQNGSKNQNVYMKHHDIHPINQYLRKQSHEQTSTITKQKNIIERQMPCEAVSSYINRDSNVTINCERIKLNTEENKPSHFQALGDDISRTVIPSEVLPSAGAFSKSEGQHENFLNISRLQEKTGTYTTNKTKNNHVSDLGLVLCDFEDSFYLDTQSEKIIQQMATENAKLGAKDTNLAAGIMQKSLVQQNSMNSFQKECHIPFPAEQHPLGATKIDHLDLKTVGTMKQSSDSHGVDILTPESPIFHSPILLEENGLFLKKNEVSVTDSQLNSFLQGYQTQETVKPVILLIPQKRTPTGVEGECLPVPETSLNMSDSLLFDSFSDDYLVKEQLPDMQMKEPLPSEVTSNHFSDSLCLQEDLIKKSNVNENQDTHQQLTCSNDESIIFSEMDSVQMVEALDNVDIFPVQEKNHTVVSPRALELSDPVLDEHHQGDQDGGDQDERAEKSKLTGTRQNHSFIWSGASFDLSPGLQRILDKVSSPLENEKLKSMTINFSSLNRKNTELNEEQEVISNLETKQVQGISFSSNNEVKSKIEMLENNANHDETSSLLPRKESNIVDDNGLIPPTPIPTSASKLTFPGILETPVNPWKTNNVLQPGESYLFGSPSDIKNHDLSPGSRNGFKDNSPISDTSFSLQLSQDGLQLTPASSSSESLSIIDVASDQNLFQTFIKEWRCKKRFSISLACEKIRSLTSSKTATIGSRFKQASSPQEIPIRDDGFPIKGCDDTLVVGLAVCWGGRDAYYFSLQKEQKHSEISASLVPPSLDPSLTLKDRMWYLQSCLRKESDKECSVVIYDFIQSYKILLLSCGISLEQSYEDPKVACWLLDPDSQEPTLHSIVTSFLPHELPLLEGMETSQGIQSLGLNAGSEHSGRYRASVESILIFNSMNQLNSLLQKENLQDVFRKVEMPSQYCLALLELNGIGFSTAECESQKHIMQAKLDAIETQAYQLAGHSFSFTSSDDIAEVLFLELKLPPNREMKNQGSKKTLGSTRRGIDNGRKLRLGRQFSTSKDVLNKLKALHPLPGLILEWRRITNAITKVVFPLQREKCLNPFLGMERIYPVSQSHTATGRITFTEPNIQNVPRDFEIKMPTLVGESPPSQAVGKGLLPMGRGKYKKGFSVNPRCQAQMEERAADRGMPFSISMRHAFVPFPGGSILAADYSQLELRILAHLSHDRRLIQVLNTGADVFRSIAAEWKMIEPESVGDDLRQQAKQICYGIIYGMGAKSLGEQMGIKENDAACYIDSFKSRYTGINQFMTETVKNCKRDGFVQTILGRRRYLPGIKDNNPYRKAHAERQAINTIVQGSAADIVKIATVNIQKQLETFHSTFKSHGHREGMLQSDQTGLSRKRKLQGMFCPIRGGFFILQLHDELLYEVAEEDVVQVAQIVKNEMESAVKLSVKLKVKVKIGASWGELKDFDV"}
{"SMILES": "CNc1nc(-c2ccc3c(N)n[nH]c3c2)cc(N2C[C@@H](C(=O)NC3CCCCC3)CC[C@H]2C)n1", "remaining activity": "94.3%"}
{"SMILES": "CCCCOc1ccc(CC(=O)NO)cc1", "remaining activity": "100% and 105%"}
{"SMILES": "CCOC(=O)C1=C(C)NC(C)=C(C(=O)OCC)C1c1c(F)c(F)c(F)c(F)c1F", "remaining activity": "106%"}
{"SMILES": "CC1(C)O[C@@H]2C[C@H]3[C@@H]4C[C@H](F)C5=CC(=O)C=C[C@]5(C)[C@@]4(F)[C@@H](O)C[C@]3(C)[C@]2(C(=O)CO)O1", "remaining activity": "96.1%"}
{"SMILES": "O=C(O)[C@H]1O[C@@H](Oc2cc3oc(-c4ccccc4)cc(=O)c3c(O)c2O)[C@H](O)[C@@H](O)[C@@H]1O", "remaining activity": "93.3%"}
{"data": "Block 3", "SMILES": "Cn1cnc(Cn2ccc3ccc(CNCc4[nH]c5ccccc5c4[C@H]4NC(=O)c5ccc(O)cc54)cc32)c1", "target": "GTPase KRas (KRAS, Homo sapiens, UniProt P01116, G12C)", "effect on": "binding", "mode": "competitor", "method": "NanoBRET", "cells": "HEK293", "baseline": "vehicle and 20 µM BI compound"}
{"tested at": "20 µM", "time": "2 h", "normalized BRET": "1.31% and -0.59% and 0.02% and -0.73%"}
{"tested at": "339 pM", "time": "1 h", "normalized BRET": "93.4% and 93.8% and 87.8%"}
{"tested at": "2.22 µM", "time": "4 h", "normalized BRET": "17% and 16.7% and 13.9% and 12.4%"}
{"data": "Block 4", "SMILES": "N#CC(C#N)=C(N)/C(C#N)=C/c1ccc(O)cc1", "effect on": "enzyme activity", "mode": "inhibitor", "tested at": "0.5 µM", "baseline": "control"}
{"target": "Cyclin-dependent kinase 9, with cyclin K (CDK9, Homo sapiens, UniProt P50750)", "remaining activity [%]": 100}
{"target": "Serine/threonine-protein kinase PLK3 (PLK3, Homo sapiens, UniProt Q9H4B4)", "remaining activity [%]": 63.6}
{"target": "Rho-associated protein kinase 1 (ROCK1, Homo sapiens, UniProt Q13464)", "remaining activity [%]": 100}
{"target": "cGMP-dependent protein kinase 2 (PRKG2, Homo sapiens, UniProt Q13237)", "remaining activity [%]": 86.9}
{"target": "Vascular endothelial growth factor receptor 2 (KDR, Homo sapiens, UniProt P35968)", "remaining activity [%]": 97.2}
{"target": "Cyclin-dependent kinase 1, with cyclin A (CDK1, Homo sapiens, UniProt P06493)", "remaining activity [%]": 90.6}
{"target": "Discoidin domain-containing receptor 2 (DDR2, Homo sapiens, UniProt Q16832)", "remaining activity [%]": 97.6}
{"target": "Myosin-IIIb (MYO3B, Homo sapiens, UniProt Q8WXR4)", "remaining activity [%]": 88.1}
{"target": "Mitogen-activated protein kinase 11 (MAPK11, Homo sapiens, UniProt Q15759)", "remaining activity [%]": 100}
{"target": "Misshapen-like kinase 1 (MINK1, Homo sapiens, UniProt Q8N4C8)", "remaining activity [%]": 97.7}
{"target": "Serine/threonine-protein kinase tousled-like 2 (TLK2, Homo sapiens, UniProt Q86UE8)", "remaining activity [%]": 89.4}
{"target": "Dual specificity protein kinase CLK4 (CLK4, Homo sapiens, UniProt Q9HAZ1)", "remaining activity [%]": 101}
{"target": "Dual specificity mitogen-activated protein kinase kinase 1 (MAP2K1, Homo sapiens, UniProt Q02750)", "remaining activity [%]": 93.7}
{"target": "Serine/threonine-protein kinase MRCK beta (CDC42BPB, Homo sapiens, UniProt Q9Y5S2)", "remaining activity [%]": 109}
{"data": "Block 5", "SMILES": "O=C(O)[C@H]1[C@H](Cn2nnc3ccccc3c2=O)CC[C@@H]1C(=O)c1ccc(OCCC2CCOCC2)cc1", "method": "competition with immobilised ligand", "tested at": "1 µM"}
{"target": "5'-AMP-activated protein kinase catalytic subunit alpha-1 (PRKAA1, Homo sapiens, UniProt Q13131)", "effect on": "cell-free assay", "remaining binding": "100%"}
{"target": "Ephrin type-A receptor 1 (EPHA1, Homo sapiens, UniProt P21709)", "effect on": "cell-free assay", "remaining binding": "100%"}
{"target": "Serine/threonine-protein kinase Nek1 (NEK1, Homo sapiens, UniProt Q96PY6)", "effect on": "cell-free assay", "remaining binding": "82%"}
{"target": "Cyclin-dependent kinase-like 3 (CDKL3, Homo sapiens, UniProt Q8IVW4)", "effect on": "binding", "remaining binding": "87%"}
{"target": "Tyrosine-protein kinase ABL1, phosphorylated (ABL1, Homo sapiens, UniProt P00519, T315I)", "effect on": "cell-free assay", "remaining binding": "79%"}
{"note": "A few entries again (block 2):"}
{"SMILES": "CCCCOc1ccc(CC(=O)NO)cc1", "remaining activity": "100% and 105%"}
{"SMILES": "CC1(C)O[C@@H]2C[C@H]3[C@@H]4C[C@H](F)C5=CC(=O)C=C[C@]5(C)[C@@]4(F)[C@@H](O)C[C@]3(C)[C@]2(C(=O)CO)O1", "remaining activity": "96.1%"}
